Measurements collected from several papers.
± marks the error that the study gave. Where no end group is shown, it is not given here. [ ]: non-standard residue; d: D form.
B1: UGT1A9 (Homo sapiens, UniProt O60656); chain GKLLVVPMDGSHWFTMRSVVEKLILRGHEVVVVMPEVSWQLGRSLNCTVKTYSTSYTLEDLDREFKAFAHAQWKAQVRSIYSLLMGSYNDIFDLFFSNCRSLFKDKKLVEYLKESSFDAVFLDPFDNCGLIVAKYFSLPSVVFARGILCHYLEEGAQCPAPLSYVPRILLGFSDAMTFKERVRNHIMHLEEHLLCHRFFKNALEIASEILQTPVTEYDLYSHTSIWLLRTDFVLDYPKPVMPNMIFIGGINCHQGKPLPMEFEAYINASGEHGIVVFSLGSMVSEIPEKKAMAIADALGKIPQTVLWRYTGTRPSNLANNTILVKWLPQNDLLGHPMTRAFITHAGSHGVYESICNGVPMVMMPLFGDQMDNAKRMETKGAGVTLNVLEMTSEDLENALKAVINDKSYKENIMRLSSLHKDRPVEPLDLAVFWVEFVMRHKGAPHLRPAAHDLTWYQYHSLDVIGFLLAVVLTVAFITFKCCAYGYRKCLGKKGRVKKAHKSKTH
B2: CRYBB1 1-190 (Homo sapiens, UniProt P53674); sequence looked up; chain MSQAAKASASATVAVNPGPDTKGKGAPPAGTSPSPGTTLAPTTVPITSAKAAELPPGNYRLVVFELENFQGRRAEFSGECSNLADRGFDRVRSIIVSAGPWVAFEQSNFRGEMFILEKGEYPRWNTWSSSYRSDRLMSFRPIKMDAQEHKISLFEGANFKGNTIEIQGDDAPSLWVYGFSDRVGSVKVSS
B3: Il1a 115-270 (Mus musculus, UniProt P01582); chain SAPYTYQSDLRYKLMKLVRQKFVMNDSLNQTIYQDVDKHYLSTTWLNDLQQEVKFDMYAYSSGGDDSKYPVTLKISDSQLFVSAQGEDQPVLLKELPETPKLITGSETDLIFFWKSINSKNYFTSAAYPELFIATKEQSRVHLARGLPSMTDFQIS
B4: MIF4GD E200A (Homo sapiens, UniProt A9UHW6); sequence looked up; chain MGEPSREEYKIQSFDAETQQLLKTALKDPGAVDLEKVANVIVDHSLQDCVFSKEAGRMCYAIIQAESKQAGQSVFRRGLLNRLQQEYQAREQLRARSLQGWVCYVTFICNIFDYLRVNNMPMMALVNPVYDCLFRLAQPDSLSKEEEVDCLVLQLHRVGEQLEKMNGQRMDELFVLIRDGFLLPTGLSSLAQLLLLEIIAFRAAGWKTTPAAHKYYYSEVSD
B5: phoA 1-150 (Escherichia coli, UniProt P00634); sequence looked up; chain MKQSTIALALLPLLFTPVTKARTPEMPVLENRAAQGDITAPGGARRLTGDQTAALRDSLSDKPAKNIILLIGDGMGDSEITAARNYAEGAGGFFKGIDALPLTGQYTHYALNKKTGKPDYVTDSAASATAWSTGVKTYNGALGVDIHEKD
B6: CSF1 33-496 (Homo sapiens, UniProt P09603); chain EEVSEYCSHMIGSGHLQSLQRLIDSQMETSCQITFEFVDQEQLKDPVCYLKKAFLLVQDIMEDTMRFRDNTPNAIAIVQLQELSLRLKSCFTKDYEEHDKACVRTFYETPLQLLEKVKNVFNETKNLLDKDWNIFSKNCNNSFAECSSQDVVTKPDCNCLYPKAIPSSDPASVSPHQPLAPSMAPVAGLTWEDSEGTEGSSLLPGEQPLHTVDPGSAKQRPPRSTCQSFEPPETPVVKDSTIGGSPQPRPSVGAFNPGMEDILDSAMGTNWVPEEASGEASEIPVPQGTELSPSRPGGGSMQTEPARPSNFLSASSPLPASAKGQQPADVTGTALPRVGPVRPTGQDWNHTPQKTDHPSALLRDPPEPGSPRISSLRPQGLSNPSTLSAQPQLSRSHSSGSVLPLGELEGRRSTRDRRSPAEPEGGPASEGAARPLPRFNSVPLTDTGHERQSEGSFSPQLQES
UniProt O75899, sequence (whole entry, looked up): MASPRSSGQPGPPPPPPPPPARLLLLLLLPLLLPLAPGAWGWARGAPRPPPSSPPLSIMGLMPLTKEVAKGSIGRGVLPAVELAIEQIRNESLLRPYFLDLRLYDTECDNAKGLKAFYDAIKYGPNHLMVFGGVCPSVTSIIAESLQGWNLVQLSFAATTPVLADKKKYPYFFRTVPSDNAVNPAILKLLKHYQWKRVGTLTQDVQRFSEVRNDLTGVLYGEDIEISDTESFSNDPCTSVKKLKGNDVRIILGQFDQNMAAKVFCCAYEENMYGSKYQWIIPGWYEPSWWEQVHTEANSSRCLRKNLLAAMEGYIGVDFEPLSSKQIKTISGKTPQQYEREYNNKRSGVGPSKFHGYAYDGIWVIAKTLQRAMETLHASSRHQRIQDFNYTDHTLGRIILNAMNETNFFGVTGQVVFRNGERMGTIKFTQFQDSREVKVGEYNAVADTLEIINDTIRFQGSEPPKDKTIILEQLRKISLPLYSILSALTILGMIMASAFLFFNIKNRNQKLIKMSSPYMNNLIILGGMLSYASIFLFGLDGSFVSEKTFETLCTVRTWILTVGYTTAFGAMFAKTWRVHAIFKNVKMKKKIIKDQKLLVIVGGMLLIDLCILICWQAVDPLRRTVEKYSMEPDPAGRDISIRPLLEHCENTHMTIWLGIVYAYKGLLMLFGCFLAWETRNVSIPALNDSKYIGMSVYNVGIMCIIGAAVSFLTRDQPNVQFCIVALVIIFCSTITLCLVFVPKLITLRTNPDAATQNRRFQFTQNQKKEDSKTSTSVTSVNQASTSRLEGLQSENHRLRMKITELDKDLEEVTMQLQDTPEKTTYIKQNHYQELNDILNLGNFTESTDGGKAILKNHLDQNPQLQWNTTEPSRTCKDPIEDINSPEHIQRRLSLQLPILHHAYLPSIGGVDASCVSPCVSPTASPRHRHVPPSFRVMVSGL
UniProt P09803, sequence (whole entry, looked up): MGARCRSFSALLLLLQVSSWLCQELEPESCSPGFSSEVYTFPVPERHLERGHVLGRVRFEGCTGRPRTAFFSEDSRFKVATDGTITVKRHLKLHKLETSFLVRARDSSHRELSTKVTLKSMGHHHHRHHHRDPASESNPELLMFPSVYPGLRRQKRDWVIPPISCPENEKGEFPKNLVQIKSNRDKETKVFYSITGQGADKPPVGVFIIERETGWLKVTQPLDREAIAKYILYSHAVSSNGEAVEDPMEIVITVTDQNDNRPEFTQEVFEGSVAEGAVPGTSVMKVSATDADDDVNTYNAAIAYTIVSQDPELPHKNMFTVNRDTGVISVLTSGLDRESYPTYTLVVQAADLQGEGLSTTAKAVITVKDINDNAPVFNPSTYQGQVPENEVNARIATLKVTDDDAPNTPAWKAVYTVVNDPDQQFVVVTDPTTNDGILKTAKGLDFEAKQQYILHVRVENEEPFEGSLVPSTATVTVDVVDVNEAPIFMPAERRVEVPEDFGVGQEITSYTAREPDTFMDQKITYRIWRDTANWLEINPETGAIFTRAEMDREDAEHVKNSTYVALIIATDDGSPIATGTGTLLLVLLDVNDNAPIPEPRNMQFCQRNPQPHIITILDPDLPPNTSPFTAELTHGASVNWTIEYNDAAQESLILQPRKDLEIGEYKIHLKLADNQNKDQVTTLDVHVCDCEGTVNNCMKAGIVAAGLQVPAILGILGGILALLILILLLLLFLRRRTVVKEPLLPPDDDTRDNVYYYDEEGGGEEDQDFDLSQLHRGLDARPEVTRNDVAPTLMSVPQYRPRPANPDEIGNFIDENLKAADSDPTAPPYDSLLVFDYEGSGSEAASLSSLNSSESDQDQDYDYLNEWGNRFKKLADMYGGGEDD
UniProt P13569, sequence (whole entry, unmodified, looked up): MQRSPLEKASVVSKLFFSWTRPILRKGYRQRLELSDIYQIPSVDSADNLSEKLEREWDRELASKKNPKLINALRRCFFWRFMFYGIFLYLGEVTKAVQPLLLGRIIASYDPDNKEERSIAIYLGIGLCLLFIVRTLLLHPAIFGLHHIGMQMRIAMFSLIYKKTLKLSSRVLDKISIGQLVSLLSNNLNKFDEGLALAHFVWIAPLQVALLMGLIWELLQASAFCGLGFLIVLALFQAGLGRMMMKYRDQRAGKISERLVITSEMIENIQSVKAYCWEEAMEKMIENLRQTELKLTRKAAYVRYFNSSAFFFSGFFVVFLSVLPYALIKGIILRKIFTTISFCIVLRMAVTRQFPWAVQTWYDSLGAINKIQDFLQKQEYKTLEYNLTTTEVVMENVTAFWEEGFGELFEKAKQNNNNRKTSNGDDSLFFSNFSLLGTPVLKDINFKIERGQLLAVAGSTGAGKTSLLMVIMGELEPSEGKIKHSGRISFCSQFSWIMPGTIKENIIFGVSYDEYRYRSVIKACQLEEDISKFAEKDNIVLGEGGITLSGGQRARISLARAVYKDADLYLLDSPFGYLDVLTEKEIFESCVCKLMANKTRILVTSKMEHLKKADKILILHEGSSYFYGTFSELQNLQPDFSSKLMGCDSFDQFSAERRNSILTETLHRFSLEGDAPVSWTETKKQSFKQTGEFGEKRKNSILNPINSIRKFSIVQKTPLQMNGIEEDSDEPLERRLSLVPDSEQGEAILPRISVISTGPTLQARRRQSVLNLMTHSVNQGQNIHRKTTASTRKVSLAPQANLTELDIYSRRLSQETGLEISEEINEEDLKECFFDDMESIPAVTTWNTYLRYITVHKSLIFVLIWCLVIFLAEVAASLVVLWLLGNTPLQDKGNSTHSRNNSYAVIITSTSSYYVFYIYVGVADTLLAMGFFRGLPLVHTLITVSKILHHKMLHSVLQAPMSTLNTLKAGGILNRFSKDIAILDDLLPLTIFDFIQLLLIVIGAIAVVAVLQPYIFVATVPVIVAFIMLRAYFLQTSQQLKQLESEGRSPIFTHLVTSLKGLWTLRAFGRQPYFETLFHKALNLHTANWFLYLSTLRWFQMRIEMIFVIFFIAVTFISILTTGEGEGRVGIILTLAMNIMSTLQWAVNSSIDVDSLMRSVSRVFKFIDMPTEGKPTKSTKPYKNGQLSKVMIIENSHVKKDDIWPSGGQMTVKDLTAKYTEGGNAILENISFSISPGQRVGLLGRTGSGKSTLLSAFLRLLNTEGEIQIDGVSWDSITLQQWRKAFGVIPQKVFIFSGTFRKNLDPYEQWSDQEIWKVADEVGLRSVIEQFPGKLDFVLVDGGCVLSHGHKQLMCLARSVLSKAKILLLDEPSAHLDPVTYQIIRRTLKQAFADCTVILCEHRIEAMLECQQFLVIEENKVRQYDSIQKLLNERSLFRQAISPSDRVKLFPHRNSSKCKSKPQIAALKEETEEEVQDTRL
UniProt Q62120, sequence (whole entry, looked up): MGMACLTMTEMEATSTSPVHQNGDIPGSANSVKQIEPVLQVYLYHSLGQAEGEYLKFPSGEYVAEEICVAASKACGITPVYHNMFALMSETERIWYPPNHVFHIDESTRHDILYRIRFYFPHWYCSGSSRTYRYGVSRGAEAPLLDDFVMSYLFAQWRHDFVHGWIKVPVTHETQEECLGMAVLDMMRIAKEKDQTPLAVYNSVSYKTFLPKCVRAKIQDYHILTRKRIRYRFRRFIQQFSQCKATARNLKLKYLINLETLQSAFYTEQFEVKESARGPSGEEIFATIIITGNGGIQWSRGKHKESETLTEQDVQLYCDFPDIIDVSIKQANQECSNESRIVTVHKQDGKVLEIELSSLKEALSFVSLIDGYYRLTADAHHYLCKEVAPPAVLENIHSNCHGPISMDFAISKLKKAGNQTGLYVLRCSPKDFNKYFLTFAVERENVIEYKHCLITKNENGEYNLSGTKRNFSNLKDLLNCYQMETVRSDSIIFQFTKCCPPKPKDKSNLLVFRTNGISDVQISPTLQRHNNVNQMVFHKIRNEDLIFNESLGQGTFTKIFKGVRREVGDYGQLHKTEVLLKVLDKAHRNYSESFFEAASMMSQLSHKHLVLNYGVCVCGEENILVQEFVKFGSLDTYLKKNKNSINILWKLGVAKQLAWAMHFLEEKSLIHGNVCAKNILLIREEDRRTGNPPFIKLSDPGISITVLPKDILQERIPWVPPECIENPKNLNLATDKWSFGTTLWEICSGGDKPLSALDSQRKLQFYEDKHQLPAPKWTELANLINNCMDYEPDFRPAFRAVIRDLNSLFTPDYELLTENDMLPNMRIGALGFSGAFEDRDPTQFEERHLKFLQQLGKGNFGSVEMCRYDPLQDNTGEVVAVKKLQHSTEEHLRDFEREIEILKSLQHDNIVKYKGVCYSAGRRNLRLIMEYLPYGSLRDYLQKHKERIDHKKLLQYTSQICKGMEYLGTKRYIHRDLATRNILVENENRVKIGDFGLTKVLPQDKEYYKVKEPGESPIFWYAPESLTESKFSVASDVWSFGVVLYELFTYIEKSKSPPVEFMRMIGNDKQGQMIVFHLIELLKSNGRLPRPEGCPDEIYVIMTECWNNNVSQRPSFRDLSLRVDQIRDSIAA
UniProt P13504, sequence (whole entry, looked up): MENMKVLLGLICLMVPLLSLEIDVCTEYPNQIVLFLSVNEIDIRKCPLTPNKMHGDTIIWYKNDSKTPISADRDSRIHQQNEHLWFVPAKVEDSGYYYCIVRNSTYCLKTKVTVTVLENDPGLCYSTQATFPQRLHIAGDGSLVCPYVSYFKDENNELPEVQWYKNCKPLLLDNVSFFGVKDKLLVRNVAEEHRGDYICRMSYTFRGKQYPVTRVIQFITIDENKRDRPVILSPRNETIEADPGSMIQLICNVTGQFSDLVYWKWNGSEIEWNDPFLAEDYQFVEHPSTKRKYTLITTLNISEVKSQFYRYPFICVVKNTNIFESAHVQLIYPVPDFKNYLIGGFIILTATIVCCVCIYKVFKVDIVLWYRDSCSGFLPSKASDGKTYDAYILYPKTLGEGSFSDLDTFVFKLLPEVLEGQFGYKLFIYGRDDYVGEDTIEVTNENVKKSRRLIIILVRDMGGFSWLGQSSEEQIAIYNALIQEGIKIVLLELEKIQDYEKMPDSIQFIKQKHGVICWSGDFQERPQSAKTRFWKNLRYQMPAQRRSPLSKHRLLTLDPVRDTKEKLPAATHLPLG

HIWWNDN
inhibition (peptide, human polyclonal IgM RF ABR; concentration not given, 5 µg/mL mAb II-481 coated, with: RF at 50% max binding concentration): 80%

SOCS3/ELOB/ELOC SOCS3 23-end (Mus musculus)
IC50 increase (JAK2 JH1 836-1132, pY1007/pY1008 (Mus musculus, UniProt Q62120); JAK2 kinase inhibition; with: STAT5b Y+8 substrate; reference: wild-type SOCS3, higher = weaker inhibition): 10 fold

CBFB/MYH11 fusion (Homo sapiens)
RUNX1 occupancy (RUNX1 (Homo sapiens, UniProt Q01196); ChIP; ME-1; 6 hours h, CEBPA promoter, with: AI-10-49 1 µM; reference: DMSO, higher = more occupancy): 8 fold

thyrotropin-releasing hormone, pyroGlu, C-terminal amide (Gallus gallus)
EC50 (protein (Gallus gallus, UniProt O93603); calcium signaling, NFAT-RE luciferase reporter, agonist; HEK 293): 0.22 nM

SRI C-terminal Ca-binding domain
NCX activity (SLC8A1 (Oryctolagus cuniculus); Ni2+-sensitive current; rabbit cardiomyocytes; 3 µM, increase; reference: control, higher = greater NCX activity): 120%

psbB C terminus (Thermosynechococcus elongatus)
koff (psb28 2-116 (Thermosynechococcus elongatus, UniProt Q8DLJ8); NMR titration; slow exchange): 10.1 ± 0.16 s⁻¹

Ctnnb1 (Mus musculus, UniProt Q02248)
E-cadherin coprecipitated (Cdh1 157-884 (Mus musculus, UniProt P09803); co-IP; HEK293T; 0.2 µg; reference: control, higher = more E-cadherin): 0.49 a.u.

B1 (UGT1A9)
Vmax (COc1c(O)cc2oc(-c3ccccc3)cc(=O)c2c1O; steady-state kinetics; pH 7.4, 37 °C): 0.00206 µmol/min/mg

BicD coiled-coil domain 1 (Drosophila melanogaster)
binding frequency (DYNC1H1/DYNC1I2/DYNC1LI2/DYNLT1/DYNLRB1/DYNLL1 (Homo sapiens); single-molecule TIRF; reference: wild-type complex, higher = more binding): 4.5 fold

GTIKENIIGVSYDEYRYR (CFTR 500-518 delF508 (Homo sapiens, UniProt P13569))
Vmax relative (CSNK2A1 (Homo sapiens, UniProt P68400); calmodulin phosphorylation, inhibitor; peptide; 160 µM, Km unchanged; reference: without peptide, lower = more inhibition): 3 fold

GABBR1 GABAB1b isoform, full length E673R (Homo sapiens)
cell surface expression (GABBR2 (Homo sapiens, UniProt O75899); anti-Flag M1 on intact cells; reference: WT/WT heterodimer, higher = more surface expression): 90%

RASA1 minimal catalytic domain
GTP hydrolysis rate (HRAS 1-166 (Homo sapiens, UniProt P01112); GAP-mediated GTP hydrolysis; 25 °C): 0.00206 s⁻¹

AAEDWCKKGDT
inhibition (peptide, human polyclonal IgM RF LOP; concentration not given, 5 µg/mL mAb II-481 coated, with: RF at 50% max binding concentration): 0%

ARGR[pT]PP[pS]LGPQDE[pS]C[pT][pT]A[pS][pS][pS]LAKDTSS (V2Rpp 343-371 (Homo sapiens); phosphorylated; pT = C[C@@H](OP(=O)(O)O)[C@H](N)C(=O)O; pS = N[C@@H](COP(=O)(O)O)C(=O)O)
ΔH (Arrb1 (Rattus norvegicus, UniProt P29066); ITC; peptide): -20.3 ± 0.4 kcal/mol

B2 (CRYBB1 1-190)
subunit exchange rate (CRYBA1, Alexa Fluor 488 label (Homo sapiens, UniProt P05813); FRET; pH 7.5, 37 °C, 100 mM NaCl): 0.0245 ± 0.0044 min⁻¹

B3 (Il1a 115-270)
proliferation (Il1r1 (Mus musculus, UniProt P13504); MTS assay; BECs; 10-50 ng/mL, 24 h, with: IL-1RA; reference: vehicle control): 113%

ANK2 fragment (Homo sapiens)
kon (SCN2A 1080-1203 E1111A, CK2 phosphorylated (UniProt P04775); SPR; pH 7.4, 25 °C, NaCl 150 mM): 140000 M⁻¹ s⁻¹

SHMT2 dimer, PLP-free (Homo sapiens)
IC50 (BRCC3/ABRAXAS2/BABAM2/BABAM1 (Homo sapiens); DUB activity, inhibitor; with: K63-diUb substrate): 9 nM

GAGUUGAGUUGAGUUGAGUUGAGUUGAGUUGAGUUGAGUUGAGUUGAGUUGAGUU (ssRNA; single strand)
Kd (mtrB full length assumed T30Q (Bacillus subtilis, UniProt P19466); filter binding; with: no tryptophan): 620 ± 50 nM

CGA/LHB (Equus caballus)
EC50 (LHCGR L469R (eel); cAMP response, agonist, HTRF; CHO-K1; 30 min, room temperature): 0.708 µg/mL

TIMP2 N-terminal domain S4P/V6G/I35V/S68N/V71I/T99N
Ki (MMP9 catalytic domain, no fibronectin 107-215 (Homo sapiens, UniProt P14780); fluorogenic substrate cleavage, inhibitor, enzyme inhibition assay; apparent): 0.5 nM

EDGGSFWYRAMKALYG (designed peptide)
IC50 (CIB1 (Homo sapiens, UniProt Q99828); competition with peptide, competitor, TR-FRET; peptide): 16 ± 7 nM

histone H3 peptide G34A, K36me2
demethylation (KDM2A 36-517 del365-449 (UniProt Q9Y2K7); demethylation; reference: wild-type H3K36me2 peptide, higher = less demethylation): 3 fold reduction

Kcnt2 (Rattus norvegicus, UniProt Q6UVM4)
whole-oocyte current (Kcnt1 (Rattus norvegicus, UniProt Q9Z258-1); two-electrode voltage clamp; Xenopus oocytes; reference: molecule alone, higher = larger current): 25 fold

LHST (CENPU residues 75-78, macrocycle 22-ring, imidazolium, pThr, C-amide; macrocycle 22-ring, imidazolium, pThr, C-amide)
IC50 (PLK1 (Homo sapiens, UniProt P53350); competition with ligand, ELISA; peptide, lysate): 240 nM

calmodulin isoform sCaM-4 (Glycine max, UniProt Q39890)
EC50 (calcineurin (Homo sapiens, UniProt Q08209); CaN dephosphorylation of MUF-P, activator; 20 °C, used as Ka): 38 nM

B4 (MIF4GD E200A)
koff (SLBP, phosphorylated, multiple sites (Homo sapiens, UniProt Q14493); SPR; pH 7.4, 25 °C, NaCl 150 mM): 0.00549 s⁻¹

FGF14 fragment, N-terminal adamantanecarbonyl, Glu tert-butyl ester, C-terminal ethyl ester (Homo sapiens)
kon (FGF14 64-252 (Homo sapiens, UniProt Q92915-2); SPR): 217 M⁻¹ s⁻¹

pyrrhocoricin-P7 fusion, N-terminal FITC, Cha, free acid (Pyrrhocoris apterus)
MBC (dnaN (Escherichia coli, UniProt P0A988); bactericidal activity; E. coli D22): 128 µg/mL

LWAAQRYGRELRRMSDEFVDSFKKGLPR (BAD 104-131 (Homo sapiens, UniProt Q92934); sequence looked up)
Ki (BCL2L1 1-209 Y101H/F105L/Q111G/S122I/Q125V/V126A/L130I/A142G/F146A (Homo sapiens, UniProt Q07817-1); fluorescence polarisation; peptide): 0.26 nM

B5 (phoA 1-150)
affinity decrease (tig fragment M374A/Y378A/V384A/F387A (Escherichia coli); ITC; pH 7.0; reference: TF^WT, higher = weaker binding): 6 fold

B6 (CSF1 33-496)
koff (CSF1R Fc fusion D1-D5 M149K (Homo sapiens, UniProt P07333); SPR; pH 7.4, NaCl 0.15 M): 0.029 s⁻¹

RPKRPTTLNLF (MAPK8IP1 residues 157-167 (Homo sapiens))
IC50 (MAPK10 JNK3α1, pT221/pY223 (Homo sapiens, UniProt P53779-2); displacement of labelled peptide, competitor, FRET; peptide; pH 7.4, NaCl 150 mM): 500 ± 20 nM

RCVRLHESCLGQQVPCCDPCATCYCRFFNAFCYCRKLGTAMNPCSRT (AGRP 86-132 (Homo sapiens, UniProt O00253); sequence looked up)
inverse agonist EC50 (MC4R (Homo sapiens, UniProt P32245); cAMP, inverse agonist, AlphaScreen; HEK293; apparent): 2.4 nM

Excerpt of the above:
B1 (UGT1A9)
Vmax (COc1c(O)cc2oc(-c3ccccc3)cc(=O)c2c1O; steady-state kinetics; pH 7.4, 37 °C): 0.00206 µmol/min/mg

BicD coiled-coil domain 1 (Drosophila melanogaster)
binding frequency (DYNC1H1/DYNC1I2/DYNC1LI2/DYNLT1/DYNLRB1/DYNLL1 (Homo sapiens); single-molecule TIRF; reference: wild-type complex, higher = more binding): 4.5 fold

GTIKENIIGVSYDEYRYR (CFTR 500-518 delF508 (Homo sapiens, UniProt P13569))
Vmax relative (CSNK2A1 (Homo sapiens, UniProt P68400); calmodulin phosphorylation, inhibitor; peptide; 160 µM, Km unchanged; reference: without peptide, lower = more inhibition): 3 fold
